Measurements from different studies.
Each line is one published result; not all experiments were run side by side.
SLC6A3: Sodium-dependent dopamine transporter (SLC6A3, Homo sapiens, UniProt Q01959)
UniProt Q01959, sequence (whole entry, unmodified, looked up): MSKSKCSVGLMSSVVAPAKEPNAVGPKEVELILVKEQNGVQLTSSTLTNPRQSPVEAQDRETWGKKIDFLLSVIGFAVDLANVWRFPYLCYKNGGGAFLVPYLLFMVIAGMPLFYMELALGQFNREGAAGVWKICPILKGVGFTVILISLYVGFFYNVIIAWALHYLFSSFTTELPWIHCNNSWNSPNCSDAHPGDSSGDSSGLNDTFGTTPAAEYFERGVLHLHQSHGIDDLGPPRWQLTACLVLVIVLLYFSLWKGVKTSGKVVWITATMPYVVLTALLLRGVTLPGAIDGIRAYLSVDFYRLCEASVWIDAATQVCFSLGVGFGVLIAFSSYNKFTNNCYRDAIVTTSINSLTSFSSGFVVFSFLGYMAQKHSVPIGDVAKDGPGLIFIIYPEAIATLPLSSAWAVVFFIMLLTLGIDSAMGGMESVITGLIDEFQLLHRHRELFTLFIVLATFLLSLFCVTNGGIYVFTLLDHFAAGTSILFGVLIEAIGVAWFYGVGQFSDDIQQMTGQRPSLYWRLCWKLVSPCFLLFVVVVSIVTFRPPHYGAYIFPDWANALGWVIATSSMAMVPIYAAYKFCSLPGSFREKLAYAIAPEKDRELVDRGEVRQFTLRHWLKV

C[C@@H]1COCCN1c1nc(NCc2cccnc2C(F)(F)F)c2cccnc2n1 — IC50 (SLC6A3; binding; CEREP panel): > 100 µM
C/C(=N\OCCCN1CCCCC1)c1ccc(C(F)(F)F)cc1 — inhibition (SLC6A3; uptake, inhibitor; 10 µM): 22.8%
CCO[C@H]1[C@H](O)[C@@H](N)[C@@H](O[C@H]2[C@H](O[C@@H]3O[C@H](CO)[C@@H](O[C@H]4O[C@@H](CN)[C@@H](O)[C@H](O)[C@H]4N)[C@H]3O)[C@@H](O)[C@H](N)C[C@@H]2N)O[C@@H]1CO — specific binding (SLC6A3; radioligand binding; 10 µM, 1% DMSO): 1%
N[C@H](C(=O)N1CCCC1)C1CCN(c2nccc3c(-c4ncc(Cl)cc4Cl)cccc23)CC1 — inhibition (SLC6A3; ligand displacement; 10 µM): 25%
Cc1cc(Nc2nc(C[C@@]3(C(=O)O)CCN(Cc4cccc(Cl)c4F)[C@H](C)C3)cc(C)c2F)[nH]n1 — inhibition (SLC6A3; inhibitor; 10 µM): 21.5%
CCOCC1C(c2ccc(Cl)c(Cl)c2)CC2CCC1N2C (stereo not shown) — remaining activity (Sodium-dependent dopamine transporter (SLC6A3, Homo sapiens, UniProt Q01959, F326A); dopamine uptake; 0.002 µM, 0.03333 h, F326A mutant, together with: [3H]dopamine; baseline: no inhibitor): 106%
CCc1nnc(-c2c(OC)cc(-c3cnc4cc(-c5cnn(C)c5)ccn34)cc2OC)o1 — remaining binding (SLC6A3; antagonist radioligand, radioligand binding; 10 µM, SafetyScreen44 dopamine transporter replicate 2; lower = stronger displacement): 92.6%
COc1ccc(F)cc1S(=O)(=O)Nc1cnc2c(c1)C(=O)NCCO2 — inhibition (SLC6A3; ligand displacement, radioligand; 10 µM): 4%
CN[C@@H]1[C@H](O)[C@H](NC)[C@H]2O[C@]3(O)[C@H](O[C@@H]2[C@H]1O)O[C@H](C)C[C@H]3NC(=O)Cc1ccc(Cl)cn1 — inhibition (SLC6A3; ligand displacement, radioligand; 10 µM): 17%
Cc1sc2c(c1C)C(c1ccc(Cl)cc1)=NC(CC(=O)OC(C)(C)C)c1nnc(C)n1-2 (stereo not shown) — inhibition (SLC6A3; ligand displacement, radioligand; 1 µM): -7%

Excerpt of the above:
Cc1sc2c(c1C)C(c1ccc(Cl)cc1)=NC(CC(=O)OC(C)(C)C)c1nnc(C)n1-2 (stereo not shown) — inhibition (SLC6A3; ligand displacement, radioligand; 1 µM): -7%
